# Experimental data gathered from unrelated publications.
# Numbered parts are unrelated; each lists some results of a single study. Changes are numbered by the printed parent chain.

# Set 1
# Target: Interferon regulatory factor 3, full length, phosphomimetic (IRF3, Homo sapiens, UniProt Q14653, residues 1-427, S386D/S396D/S398D/S402D/T404D/S405D)
# Technique: protein-binding microarray
# Molecule type: double-stranded DNA, one strand shown
# Sample: in vitro
# Concentration: 2540 nM top
# Notes: 60-bp whole probe
# Together with: salmon DNA 0.4 mg/ml
# Relative to: random background probes
# Direction: higher = stronger binding
# Constant ends, left off below: GCCTAGCAC … GTCTTGATTCGCTTGACGCTGCTG
# Residues (chain): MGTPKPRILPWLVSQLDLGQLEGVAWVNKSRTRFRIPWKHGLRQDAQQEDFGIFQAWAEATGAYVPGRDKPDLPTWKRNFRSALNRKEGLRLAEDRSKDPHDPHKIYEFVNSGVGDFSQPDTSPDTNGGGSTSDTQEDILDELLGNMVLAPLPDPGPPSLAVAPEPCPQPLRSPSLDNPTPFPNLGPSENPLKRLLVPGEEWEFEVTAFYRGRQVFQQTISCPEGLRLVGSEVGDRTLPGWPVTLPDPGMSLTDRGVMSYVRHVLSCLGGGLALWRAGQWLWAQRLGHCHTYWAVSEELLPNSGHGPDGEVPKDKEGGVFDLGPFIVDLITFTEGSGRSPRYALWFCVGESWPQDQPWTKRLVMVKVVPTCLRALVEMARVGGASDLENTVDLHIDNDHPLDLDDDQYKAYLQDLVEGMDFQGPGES
Strand,fitted relative affinity [z-score]
TGTGTTATTAAATTTTCACGGGTGCTA,-0.146
GACGGTCTCCTACTGCCGACGTGCTAG,1.52
TTAGGTATCGATATCGGTTAGTGCTAG,2.66
CACGATTTCAGTCTCGAGACGTGCTAG,1.94
GACGACATCAGTCTCGAGACGTGCTAG,-0.164
ATAGGTCTCCTTTTCCTTTAGTGCTAG,5.2
TTACGACTGCTTCTCCTTTAGTGCTAG,0.00892
GACGGTATCGACTTCCGGGACGTGCTA,1.03
GACGAGTTCGGGTATCGAGACGTGCTA,-0.0472
GACGAACTAAGTCTCGAGACGTGCTAG,-0.0451
TTCTTTACCACATTCTCTGCGTGCTAG,1.57
TTAGGACTGGGACTGGGTTCGTGCTAG,-1.05
TCAGCTTCCCAATTCTCACTGTGCTAG,1.95
GTAGAACTGAGTCTCGATTAGTGCTAG,-0.377
GACGGTCTCGGTCTCGCGACGTGCTAG,1.28
TTAGGTCTCCTACTGCTTTGGTGCTAG,0.68
GACGGTTTCGGGTTTCGGGAGGTGCTA,5.7
AGCAAAAATGATTGGTTGAAGTGCTAG,-0.794
TTAGAACTGGGATATCGATTAGTGCTA,-0.395

# Set 2
# Target: CCNA2, cyclin fold, Cln2 fusion (human)
# Technique: yeast growth competition, sequencing
# Sample: yeast
# Notes: strong parent motif
# Relative to: not given
# Direction: higher = stronger binding
# Parent: SAMHD1 docking peptide (human); ASKSRVQLFKDDP; partner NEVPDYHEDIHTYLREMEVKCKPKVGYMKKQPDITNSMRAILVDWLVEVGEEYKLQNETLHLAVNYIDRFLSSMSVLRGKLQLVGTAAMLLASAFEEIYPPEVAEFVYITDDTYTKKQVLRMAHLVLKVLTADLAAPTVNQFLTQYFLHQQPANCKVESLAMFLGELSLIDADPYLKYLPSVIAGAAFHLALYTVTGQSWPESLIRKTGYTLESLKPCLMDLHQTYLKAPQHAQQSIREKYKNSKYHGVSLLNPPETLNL
Substitution,normalised enrichment score
D12P,2.81
Q7D,-0.034
S4A,5.33
R5N,-0.579
S4P,1.97
K10L,1.85
K3M,1.1
L8A,-0.211
S4T,3.6
L8P,-0.0445
K3A,1.31
K3I,1.04
F9V,0.0814
K3H,2.41
D12I,2.92
V6M,2
K3N,1.45
S2P,3.83
S4Y,3.19
D11L,1.46
V6A,1.21
S2G,2.95
S2V,3.58
L8C,-0.285
S4F,4.54

# Set 3
# Target: RNA binding protein fox-1 homolog 2, RRM domain, GST-SBP tag (RBFOX2, Homo sapiens, UniProt O43251-10, residues 100-194)
# Technique: RNA Bind-n-Seq
# Molecule type: RNA
# Sample: in vitro
# Concentration: 365 nM
# Notes: natural RNA segment, single round, ends assumed
# Relative to: no-protein control
# Direction: higher = stronger binding
# Residues (chain): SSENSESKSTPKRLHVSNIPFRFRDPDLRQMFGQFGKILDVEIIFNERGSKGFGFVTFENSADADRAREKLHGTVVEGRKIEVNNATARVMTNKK
Strand,RBNS enrichment (R)
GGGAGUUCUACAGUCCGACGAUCUUAGAAAUCAUCUUUGUGGGAAGACCUAAUUCUUCACAGCAAGGAUCUCAGGCAUGCCUUCUAGAUUUGUUCCCUCUGAGGGGCAGGAAUGAACUGUAGAAAUGUUUUAAUGGAAUUCUCGGGUGCCAA,6.8
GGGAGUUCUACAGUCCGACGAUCCCUUUUCUGGUUGUGGACAAGGCUGCCUUAGGACUUUGCUAACCCAAUAAAACCUUUAGAUUCUGGUGAAGCCAGAGCCUCUCCACAGUGGCUAAGGUUGUUGUUGAUCUUGGAAUUCUCGGGUGCCAA,0.295
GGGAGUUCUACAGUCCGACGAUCCAAUGUGUCAAAUAACGUAUUGAAUAUUUAUGAAAAGAGAGACUAUAUUUAUAUUCUUAGAUAGUUUGUUCCACAAUUUUUCAUUUCAUGCUUCCAUAUAUAUUACCCUGUGGAAUUCUCGGGUGCCAA,0.405
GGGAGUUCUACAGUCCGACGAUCUGUUAAUUUGUUUUAAGAGAAUUAUAUUUUUUGGAAUUUACAGAGAAUUGCAUUCAUGGCUUUCAAUUGUAAAUAUGCUAAGGGUAUUUUAAUAAAUCUUGGUUUCAUGUUGGAAUUCUCGGGUGCCAA,0.699
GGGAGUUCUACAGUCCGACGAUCAAGAUAAUUAAGAUCCCCCGUGGAGAAAGCAGUGACACAUUCACACAGCUGUUCCCUCGCAUGUUAUUUCAUGAACAUGACCUGUUUUCGUGCACUAGACACACAGAGUGUGGAAUUCUCGGGUGCCAA,1.67
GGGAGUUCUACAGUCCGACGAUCAUCCCCUCUGAGUCCUCUGCCCCUUCCAAGGACACUAAUGAGCCUGGGAGGGUGGCAGGGAGGAGGGGACAGCUUCACCCUUGGAAGUCCUGGGGUUUUUCCUCUUCCUUUGGAAUUCUCGGGUGCCAA,0.167
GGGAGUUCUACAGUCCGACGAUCAACUCUUUUGGUGUCAUUGGAUGUUUCAUUUUUGACACUAAUUUUUUCUGGACAAACUCUUUAUGUGUUUUUCCCAAGAAUAGUUAUCUACUUCCUGGAGGCAAAAUCCUUGGAAUUCUCGGGUGCCAA,0.368
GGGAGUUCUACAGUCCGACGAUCCUUGGUGCUUGAGGUCUCCCUGCUCUUGGUGGCAGUGGUAGCAGCAACAGCAGCAGCAGCAGCAGCAGCAGCAGCAGAGACCUCUCCACUUUCCCUUAGCCCCUCUGCUGUGGAAUUCUCGGGUGCCAA,0.287

# Further values, each from its own experiment
Substance,target,test,test system,setting,scale,quantity,value
"PhoQ, residues 284 288 289 292 302 303 SSTLLI","PhoP, residues 12 14 15 18 19 NHFIF (Escherichia coli, UniProt P23836)","Sort-seq, item: YFP reporter",E. coli,"PhoQ-PhoP variant library, together with: 10 µM Mg2+","relative to: high Mg2+ state, higher = stronger signaling",fold induction,3.75

# Some of these lines once more (set 1):
Strand,fitted relative affinity [z-score]
GACGGTATCGACTTCCGGGACGTGCTA,1.03
GACGAGTTCGGGTATCGAGACGTGCTA,-0.0472
GACGAACTAAGTCTCGAGACGTGCTAG,-0.0451
TTCTTTACCACATTCTCTGCGTGCTAG,1.57
TTAGGACTGGGACTGGGTTCGTGCTAG,-1.05
TCAGCTTCCCAATTCTCACTGTGCTAG,1.95
GTAGAACTGAGTCTCGATTAGTGCTAG,-0.377
GACGGTCTCGGTCTCGCGACGTGCTAG,1.28
TTAGGTCTCCTACTGCTTTGGTGCTAG,0.68
